Results collected from several papers.
Parts stem from different laboratories: compare values within a part only.
UniProt P10721, sequence (whole entry, unmodified, looked up): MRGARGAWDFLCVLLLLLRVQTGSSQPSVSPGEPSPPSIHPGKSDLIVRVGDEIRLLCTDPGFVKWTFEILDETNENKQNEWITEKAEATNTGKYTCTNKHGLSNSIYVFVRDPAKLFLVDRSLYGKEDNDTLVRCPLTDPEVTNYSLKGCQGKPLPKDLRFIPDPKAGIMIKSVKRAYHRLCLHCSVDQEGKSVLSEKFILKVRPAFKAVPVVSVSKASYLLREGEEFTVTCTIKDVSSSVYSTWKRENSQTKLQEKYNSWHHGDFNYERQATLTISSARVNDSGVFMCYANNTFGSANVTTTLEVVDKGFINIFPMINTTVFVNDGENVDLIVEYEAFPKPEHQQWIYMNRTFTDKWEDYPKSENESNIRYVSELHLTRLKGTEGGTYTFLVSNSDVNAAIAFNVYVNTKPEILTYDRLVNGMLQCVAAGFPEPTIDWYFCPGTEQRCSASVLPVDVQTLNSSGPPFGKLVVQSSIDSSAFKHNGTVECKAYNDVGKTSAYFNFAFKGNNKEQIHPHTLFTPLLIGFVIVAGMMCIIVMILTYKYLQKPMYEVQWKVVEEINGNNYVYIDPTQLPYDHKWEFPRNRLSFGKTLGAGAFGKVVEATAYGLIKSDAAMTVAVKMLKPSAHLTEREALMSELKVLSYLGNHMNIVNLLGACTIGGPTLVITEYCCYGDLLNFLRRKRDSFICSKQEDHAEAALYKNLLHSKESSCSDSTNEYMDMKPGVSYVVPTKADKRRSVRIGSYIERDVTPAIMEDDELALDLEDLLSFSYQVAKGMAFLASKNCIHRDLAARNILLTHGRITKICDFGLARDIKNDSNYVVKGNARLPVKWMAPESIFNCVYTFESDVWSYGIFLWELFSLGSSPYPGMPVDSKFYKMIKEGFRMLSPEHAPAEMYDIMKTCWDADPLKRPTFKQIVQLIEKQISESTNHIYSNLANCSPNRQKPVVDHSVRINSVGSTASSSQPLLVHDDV
UniProt P46098, sequence (whole entry, looked up): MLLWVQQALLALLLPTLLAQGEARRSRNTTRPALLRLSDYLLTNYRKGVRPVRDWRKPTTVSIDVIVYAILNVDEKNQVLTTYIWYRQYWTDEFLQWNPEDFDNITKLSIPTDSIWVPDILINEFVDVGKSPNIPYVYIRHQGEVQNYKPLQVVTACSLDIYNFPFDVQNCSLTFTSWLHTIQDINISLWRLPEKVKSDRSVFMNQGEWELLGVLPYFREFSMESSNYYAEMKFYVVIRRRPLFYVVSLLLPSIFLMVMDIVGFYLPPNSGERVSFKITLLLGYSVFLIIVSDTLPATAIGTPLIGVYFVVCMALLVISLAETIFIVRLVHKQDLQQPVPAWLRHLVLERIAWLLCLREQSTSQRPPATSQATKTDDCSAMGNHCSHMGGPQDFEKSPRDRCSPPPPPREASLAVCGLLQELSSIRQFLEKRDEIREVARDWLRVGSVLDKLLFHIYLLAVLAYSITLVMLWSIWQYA
UniProt Q9HAZ1, sequence (whole entry, looked up): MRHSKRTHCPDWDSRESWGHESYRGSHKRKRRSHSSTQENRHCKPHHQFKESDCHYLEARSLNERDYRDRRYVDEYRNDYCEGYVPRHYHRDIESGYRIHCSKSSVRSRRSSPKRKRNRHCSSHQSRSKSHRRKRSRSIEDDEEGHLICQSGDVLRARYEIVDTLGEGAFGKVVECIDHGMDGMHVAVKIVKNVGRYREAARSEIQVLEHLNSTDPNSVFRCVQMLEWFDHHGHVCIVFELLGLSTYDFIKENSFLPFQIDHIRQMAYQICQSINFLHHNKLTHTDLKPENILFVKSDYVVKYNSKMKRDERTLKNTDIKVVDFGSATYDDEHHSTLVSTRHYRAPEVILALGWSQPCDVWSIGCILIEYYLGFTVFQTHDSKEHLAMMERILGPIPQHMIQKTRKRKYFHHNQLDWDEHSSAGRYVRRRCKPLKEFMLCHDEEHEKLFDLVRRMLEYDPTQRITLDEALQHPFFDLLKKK
UniProt Q9UF33, sequence (whole entry, looked up): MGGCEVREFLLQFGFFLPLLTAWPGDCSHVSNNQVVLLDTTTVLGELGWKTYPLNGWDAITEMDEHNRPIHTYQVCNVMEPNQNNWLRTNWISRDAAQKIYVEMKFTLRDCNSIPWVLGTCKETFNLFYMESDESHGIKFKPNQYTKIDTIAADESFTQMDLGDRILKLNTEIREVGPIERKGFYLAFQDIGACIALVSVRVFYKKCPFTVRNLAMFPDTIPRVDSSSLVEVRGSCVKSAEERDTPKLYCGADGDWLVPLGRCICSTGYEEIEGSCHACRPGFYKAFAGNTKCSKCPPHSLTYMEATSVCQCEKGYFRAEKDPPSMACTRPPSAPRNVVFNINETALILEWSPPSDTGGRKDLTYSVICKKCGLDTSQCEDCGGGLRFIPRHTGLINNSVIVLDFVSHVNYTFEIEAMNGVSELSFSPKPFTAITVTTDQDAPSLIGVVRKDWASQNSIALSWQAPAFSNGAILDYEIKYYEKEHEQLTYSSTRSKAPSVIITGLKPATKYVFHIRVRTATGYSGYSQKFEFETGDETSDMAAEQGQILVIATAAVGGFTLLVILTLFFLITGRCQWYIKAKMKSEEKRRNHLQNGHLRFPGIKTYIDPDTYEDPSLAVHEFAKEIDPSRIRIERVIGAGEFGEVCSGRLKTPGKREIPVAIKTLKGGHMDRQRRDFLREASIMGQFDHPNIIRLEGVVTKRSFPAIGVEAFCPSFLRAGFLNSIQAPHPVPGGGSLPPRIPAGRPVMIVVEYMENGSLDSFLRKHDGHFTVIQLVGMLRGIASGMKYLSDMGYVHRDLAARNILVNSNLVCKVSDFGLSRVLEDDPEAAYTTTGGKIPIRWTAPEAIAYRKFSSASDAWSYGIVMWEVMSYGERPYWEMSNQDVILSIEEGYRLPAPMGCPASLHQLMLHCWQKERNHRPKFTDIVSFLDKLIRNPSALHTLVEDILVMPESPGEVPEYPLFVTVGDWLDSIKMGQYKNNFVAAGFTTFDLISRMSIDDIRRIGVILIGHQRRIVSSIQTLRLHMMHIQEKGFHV
UniProt Q8IYT8, sequence (whole entry, looked up): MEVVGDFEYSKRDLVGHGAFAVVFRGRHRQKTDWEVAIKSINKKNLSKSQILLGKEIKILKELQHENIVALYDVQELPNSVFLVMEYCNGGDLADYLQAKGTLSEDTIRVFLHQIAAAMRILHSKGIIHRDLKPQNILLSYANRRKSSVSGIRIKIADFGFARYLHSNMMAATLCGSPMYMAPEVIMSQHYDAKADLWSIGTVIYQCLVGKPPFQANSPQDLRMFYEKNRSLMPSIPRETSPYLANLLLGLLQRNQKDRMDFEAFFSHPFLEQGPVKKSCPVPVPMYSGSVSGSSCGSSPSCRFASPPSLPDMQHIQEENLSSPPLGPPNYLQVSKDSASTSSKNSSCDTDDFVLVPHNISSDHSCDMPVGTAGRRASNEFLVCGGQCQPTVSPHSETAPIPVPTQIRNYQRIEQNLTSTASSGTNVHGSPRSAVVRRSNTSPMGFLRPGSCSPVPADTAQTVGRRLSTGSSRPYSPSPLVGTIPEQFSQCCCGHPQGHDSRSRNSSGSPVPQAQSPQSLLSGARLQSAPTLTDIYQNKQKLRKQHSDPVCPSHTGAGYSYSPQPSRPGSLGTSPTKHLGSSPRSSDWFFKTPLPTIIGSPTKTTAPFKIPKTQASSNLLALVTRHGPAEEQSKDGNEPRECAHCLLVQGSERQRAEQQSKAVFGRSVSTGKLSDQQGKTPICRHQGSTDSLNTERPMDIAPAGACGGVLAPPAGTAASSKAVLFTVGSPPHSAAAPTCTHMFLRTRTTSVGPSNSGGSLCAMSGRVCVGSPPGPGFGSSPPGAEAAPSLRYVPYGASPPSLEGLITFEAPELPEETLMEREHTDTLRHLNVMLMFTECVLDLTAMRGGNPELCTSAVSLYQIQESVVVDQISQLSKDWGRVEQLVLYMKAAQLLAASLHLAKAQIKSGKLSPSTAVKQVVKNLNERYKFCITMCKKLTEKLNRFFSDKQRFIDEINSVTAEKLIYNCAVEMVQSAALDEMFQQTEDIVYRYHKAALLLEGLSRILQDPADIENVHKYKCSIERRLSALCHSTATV
UniProt P41595, sequence (whole entry, looked up): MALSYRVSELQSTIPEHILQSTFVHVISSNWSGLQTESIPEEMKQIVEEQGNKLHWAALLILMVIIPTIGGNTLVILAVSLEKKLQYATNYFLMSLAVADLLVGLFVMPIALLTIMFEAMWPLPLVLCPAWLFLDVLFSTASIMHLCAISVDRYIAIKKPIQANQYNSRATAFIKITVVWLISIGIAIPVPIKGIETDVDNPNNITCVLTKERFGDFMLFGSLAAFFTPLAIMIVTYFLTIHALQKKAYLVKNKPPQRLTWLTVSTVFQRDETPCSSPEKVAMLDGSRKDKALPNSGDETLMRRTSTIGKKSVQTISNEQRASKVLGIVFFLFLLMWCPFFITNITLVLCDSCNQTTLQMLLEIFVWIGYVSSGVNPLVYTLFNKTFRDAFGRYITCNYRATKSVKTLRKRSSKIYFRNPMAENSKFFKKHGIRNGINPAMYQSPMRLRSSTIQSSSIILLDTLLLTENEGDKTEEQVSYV

Series 1
Target: Tyrosine-protein kinase Yes (YES1, Homo sapiens, UniProt P07947)
UniProt P07947, sequence (whole entry, looked up): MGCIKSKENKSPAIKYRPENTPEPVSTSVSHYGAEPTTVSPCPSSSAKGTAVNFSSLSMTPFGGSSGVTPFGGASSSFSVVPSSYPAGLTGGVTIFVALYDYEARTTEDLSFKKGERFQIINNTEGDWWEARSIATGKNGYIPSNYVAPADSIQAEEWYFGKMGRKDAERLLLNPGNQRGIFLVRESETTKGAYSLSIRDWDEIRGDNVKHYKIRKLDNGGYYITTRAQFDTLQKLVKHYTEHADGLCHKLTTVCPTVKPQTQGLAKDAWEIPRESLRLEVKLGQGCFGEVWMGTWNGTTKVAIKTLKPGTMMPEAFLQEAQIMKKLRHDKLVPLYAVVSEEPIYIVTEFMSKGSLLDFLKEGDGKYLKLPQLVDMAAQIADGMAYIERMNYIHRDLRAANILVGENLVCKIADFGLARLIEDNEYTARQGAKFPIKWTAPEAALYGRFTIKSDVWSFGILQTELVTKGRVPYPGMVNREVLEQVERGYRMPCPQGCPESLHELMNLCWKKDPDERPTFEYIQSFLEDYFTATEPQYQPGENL
Effect on: enzyme activity
Action: inhibitor
Concentration: 0.5 µM
Relative to: control
Compound | remaining activity
Nc1ncnc2n[nH]c(Nc3ccc(F)cc3)c12 | 92.9%
O=C(CCCc1ccc(-c2ccccc2F)cc1)Nc1ccc(O)cc1 | 110%
O=C1NC(=O)C(c2cn(CCCn3ccnc3)c3ccccc23)=C1Nc1ccccc1 | 89.3%
O=C(O)c1ccc2c3c1cccc3c(=O)n1c3ccccc3nc21 | 96.6%
O=C1NC(=O)C(c2cn(CCCO)c3ncccc23)=C1c1cnccn1 | 80.1%
O=C(Nc1cccc(Nc2cc(Nc3cccc(C(F)(F)F)c3)ncn2)c1)C1CC1 | 99.6%
Cc1cccc(-c2[nH]c(C(C)(C)C)nc2-c2ccc3c(c2)OCO3)n1 | 97%
Cn1sc(=O)n(Cc2ccccc2)c1=O | 96.3%
Cn1c2ccccc2c2c3c(c4c5ccccc5n(CCC#N)c4c21)CNC3=O | 68.7%
CO[C@H]1C[C@@H]2CC[C@@H](C)[C@@](O)(O2)C(=O)C(=O)N2CCCC[C@H]2C(=O)O[C@H]([C@H](C)C[C@@H]2CC[C@@H](O)[C@H](OC)C2)CC(=O)[C@H](C)/C=C(\C)[C@@H](O)[C@@H](OC)C(=O)[C@H](C)C[C@H](C)/C=C/C=C/C=C/1C | 101%
Nc1[nH]nc2nc3ccccc3nc12 | 97.1%
COc1ccc(CNC(=O)Nc2ncc([N+](=O)[O-])s2)cc1 | 96.1%
OCC(O)CCON=C1C(c2c(O)[nH]c3ccccc23)=Nc2ccccc21 (centres unmarked) | 13.4%
O=c1c2ccccc2[nH]c(=S)n1CCN1CCC(=C(c2ccc(F)cc2)c2ccc(F)cc2)CC1 | 99.2%
Cc1ccc(NC(=O)c2ccc(CN3CCN(C)CC3)cc2)cc1Nc1nc(-c2cccnc2)cs1 | 50.7%

Series 2
Compound: O=C(Nc1ccccc1)Nc1cccc(Oc2ccc3nccn3n2)c1
Method: competitive binding panel
Concentration: 1 µM
Relative to: vehicle
target | refers to | remaining binding [%]
RIPK2 (Homo sapiens, UniProt O43353) | – | 100
CLK4 (Homo sapiens, UniProt Q9HAZ1) | – | 100
Aurora kinase A (AURKA, Homo sapiens, UniProt O14965) | – | 100
RIPK1 (Homo sapiens, UniProt Q13546) | – | 98
EPHA6 (Homo sapiens, UniProt Q9UF33) | – | 100
ULK2 (Homo sapiens, UniProt Q8IYT8) | – | 100
PIP5K1A (Homo sapiens, UniProt Q99755) | – | 91
NIM1K (Homo sapiens, UniProt Q8IY84) | NIM1 | 81

Series 3
Structure (SMILES): CO[C@@H]1[C@H](N(C)C(=O)c2ccccc2)C[C@H]2O[C@]1(C)n1c3ccccc3c3c4c(c5c6ccccc6n2c5c31)C(=O)NC4
Action: inhibitor
Concentration: 1 µM
target | effect on | inhibition [%]
KIT (Homo sapiens, UniProt P10721, L576P) | enzyme activity | 100
KIT (Homo sapiens, UniProt P10721, T670I/V559D) | enzyme activity | 98
MST1R (Homo sapiens, UniProt Q04912) | enzyme activity | 3
HUNK (Homo sapiens, UniProt P57058) | enzyme activity | 0
Ribosomal protein S6 kinase alpha-2, kinase domain 2 (RPS6KA2, Homo sapiens, UniProt Q15349) | – | 6
AAK1 (Homo sapiens, UniProt Q2M2I8) | enzyme activity | 96
MAP2K7 (Homo sapiens, UniProt O14733) | enzyme activity | 8
FYN (Homo sapiens, UniProt P06241) | enzyme activity | 60
ACVR1B (Homo sapiens, UniProt P36896) | enzyme activity | 14

Series 4
Compound: C[C@H](NC(=O)c1cnc2n1[C@](C)(Cc1ccc(C#N)cc1)C(=O)N2c1cc(Cl)c(F)c(Cl)c1)C(=O)NC1(c2ccccn2)CC1
Effect on: binding
Method: radioligand binding
Concentration: 10 µM
target | inhibition
HTR5A (Homo sapiens, UniProt P47898) | 6.14%
HTR2B (Homo sapiens, UniProt P41595) | 17.2%
HTR3A (Homo sapiens, UniProt P46098) | -2.51%

Excerpt of the above (series 1):
Compound | remaining activity
Nc1[nH]nc2nc3ccccc3nc12 | 97.1%
Nc1ncnc2n[nH]c(Nc3ccc(F)cc3)c12 | 92.9%
Cc1cccc(-c2[nH]c(C(C)(C)C)nc2-c2ccc3c(c2)OCO3)n1 | 97%
